Experimental data pooled from the literature.
A part holds a random share of what one study measured.

Study 1
Target: RNA binding protein fox-1 homolog 2, RRM domain, GST-SBP tag (RBFOX2, Homo sapiens, UniProt O43251-10, residues 100-194)
Technique: RNA Bind-n-Seq
Form: RNA
Medium: in vitro
Tested at: 365 nM
Notes: natural RNA segment, single round, ends assumed
Reference: no-protein control
Reading: higher = stronger binding
Target sequence (chain): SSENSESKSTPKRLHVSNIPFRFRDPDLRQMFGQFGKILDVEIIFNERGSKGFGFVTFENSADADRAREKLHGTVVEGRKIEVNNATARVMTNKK
`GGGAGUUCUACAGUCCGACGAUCGAGAUUGUCUUUCUGCCACAGAACAGCUGCAAACGUGUCAGGAGGUUAGCUGAGAAAGAAAUCGGGCUGCUGCGGAGCACAGAGUGACUUGGAACUCCAUUCCACCUGACUGGAAUUCUCGGGUGCCAA` — result for “RBNS enrichment (R)”: 0.582.
For `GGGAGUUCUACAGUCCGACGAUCUAGAAAGCCUUUCUAUUUUUUGGUGCGGGAGGGAAGACCUCUCACUUAGGGCAAGAGCCAGGUAUAGUCUCCCUUCCCAGAAUUUGUAACUGAGAAGAUCUUUUCUUUUUUGGAAUUCUCGGGUGCCAA`, “RBNS enrichment (R)” read 0.52.
`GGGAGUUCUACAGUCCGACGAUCGGAAGAUAGGGUCCAACAGCGAGAGCCAGGCCCCUCCCCACCCCCACCAGCUCUCUCUAUCAUGGAUCUGCACCUUCUCGCCCUUGUCUCUCCUGAGUCAUGACGGGUCAUGGAAUUCUCGGGUGCCAA` — result for “RBNS enrichment (R)”: 0.379.
For `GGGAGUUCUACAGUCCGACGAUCUCCCAAAUGCUUUUAGUGAACCGACUGUAUUUUUCCGAGGUAUCUCGUGUACAUGGUACUUCUUUCUGCUACAGCCGCCAAGUCUAGAGUGUUUACACUGGUUGAUGCUUUGGAAUUCUCGGGUGCCAA`, “RBNS enrichment (R)” read 0.33.
For `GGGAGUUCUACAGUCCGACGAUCCCGAGAUUGCUUUGAGAACUGGUAGUUAUUCUCUUUAUGUUUGGAGGCAGCCAUUAGGCUGUAGGCCUGCUUACUGCAUAGCACUGGACGUGCCAGGCACAUUCUGGCCCUGGAAUUCUCGGGUGCCAA`, “RBNS enrichment (R)” read 0.526.
`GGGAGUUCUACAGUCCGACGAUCAGGCUUGCUGGCUGGUGAAAAAGAAAUACAUCCCUCCCUCCAUCACCAUGUGGGGAUGCAGGAAAUCCUGCAGGGGUUGUGUGGGAGGCAGAUAGAUGGUGGUAUGUUGGUGGAAUUCUCGGGUGCCAA`: “RBNS enrichment (R)” 1.4.
`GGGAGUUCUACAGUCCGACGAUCCCUGAGGGUCAGUGCUCAGCCCAGCCCUCCACUGUUGGUGGCAACCGUGGGACACCUCAUUCCCUACCCCAAACGGGCCUUUUAAUUGUCCUGGUCACUUGUACUGGUUAUGGAAUUCUCGGGUGCCAA` — result for “RBNS enrichment (R)”: 0.443.
Under “RBNS enrichment (R)”, `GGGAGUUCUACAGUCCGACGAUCUCCACUGCUCUUCACUGGGUUCACUUCCAAGGAGACUAAUGGCUCUAUUGUAAAAAUUGCUCUUAAUUCUUGAAGAGGCUACUGAGAAGCAGUGGGGUAGAUCUCAUGAGUGGAAUUCUCGGGUGCCAA` is recorded as 0.28.

Study 2
Target: Interferon regulatory factor 7, full length, phosphomimetic (IRF7, Homo sapiens, UniProt Q92985, residues 1-503, S101K/S471D/S472D/S475D/S476D/S477D/S483D/S484D/S487D)
UniProt Q92985, sequence (whole entry, unmodified, looked up): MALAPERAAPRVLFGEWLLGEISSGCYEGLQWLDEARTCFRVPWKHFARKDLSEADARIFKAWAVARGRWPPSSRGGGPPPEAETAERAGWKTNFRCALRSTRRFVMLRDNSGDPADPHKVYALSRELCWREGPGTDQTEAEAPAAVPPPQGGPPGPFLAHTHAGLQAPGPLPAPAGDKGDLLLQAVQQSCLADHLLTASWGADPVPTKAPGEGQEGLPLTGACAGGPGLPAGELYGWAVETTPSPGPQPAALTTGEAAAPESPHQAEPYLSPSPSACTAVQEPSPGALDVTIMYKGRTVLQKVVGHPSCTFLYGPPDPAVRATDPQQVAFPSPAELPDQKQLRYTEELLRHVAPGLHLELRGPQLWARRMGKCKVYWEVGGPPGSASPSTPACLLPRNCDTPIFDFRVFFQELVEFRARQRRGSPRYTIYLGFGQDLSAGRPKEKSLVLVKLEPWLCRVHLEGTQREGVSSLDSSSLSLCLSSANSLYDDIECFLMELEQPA
Technique: protein-binding microarray
Form: double-stranded DNA, one strand shown
Medium: in vitro
Tested at: 250 nM
Notes: 60-bp whole probe
Together with: salmon DNA 0.4 mg/ml
Reference: random background probes
Reading: higher = stronger binding
Shared flanks, not repeated: GCCTAGCAC … GTCTTGATTCGCTTGACGCTGCTG
The log fluorescence of `GACGGACTGCTACTGCCGACGTGCTAG` is reported as -0.945 z-score.
For `GACGAACTGAGTATCGAGCCGTGCTAG`, the log fluorescence was -0.18 z-score.
For `TCAACCATCTCATATAAAACTGTGCTA`, the log fluorescence was 0.0877 z-score.
`GACGGACTGGACTATCGGGAGGTGCTA` has a log fluorescence of -0.6 z-score.
With `GACGGTCTACTTCTCCTGACGTGCTAG` the log fluorescence was -0.059 z-score.
`ATTATGTTTGCTTTGTTCTGGTGCTAG` has a log fluorescence of 0.735 z-score.
With `TTAGAACTGAGACGGGATTAGTGCTAG` the log fluorescence was -0.578 z-score.
For `GACGAACTGGGGTTTCGACACGTGCTA`, the log fluorescence was 0.914 z-score.
The log fluorescence of `GACGGAGTGGACTATCGGGACGTGCTA` is reported as -0.883 z-score.
`TCTTTTATGGTATTTTTTTGGTGCTAG` gave a log fluorescence of 1.16 z-score.
`ATTACTCCCCAACTCGCCTTGTGCTAG` has a log fluorescence of 1.01 z-score.
`TTAGGTATCGGGTTTCGGATAGTGCTA` has a log fluorescence of 4.68 z-score.
`TTAGGTTTCGCCACTGGGTTAGTGCTA` gave a log fluorescence of 1.18 z-score.
`CTAGGTTTCGGGTTTCGGTTAGTGCTA` has a log fluorescence of 12.5 z-score.
For `GACGGTTTCCTTAACCTGACGTGCTAG`, the log fluorescence was 0.982 z-score.
For `TTAGATATCGGGTATCGATCAGTGCTA`, the log fluorescence was 0.254 z-score.
For `TTAGAACTGGAGTATCGATTAGTGCTA`, the log fluorescence was 0.0961 z-score.
`TCATATACCACTCTTGCACTGTGCTAG` gave a log fluorescence of 0.586 z-score.
`GATGGTATCCTTATCCTGACGTGCTAG` gave a log fluorescence of -0.01 z-score.

Study 3
Target: Sal-like protein 4, full length isoform B (SALL4, Homo sapiens, UniProt Q9UJQ4-2, residues 1-616)
Technique: universal PBM
Form: double-stranded DNA, one strand shown
Medium: in vitro
Tested at: not given
Notes: 8-mer, flanks averaged, mean of replicates
Reading: higher = stronger binding
Target sequence (chain): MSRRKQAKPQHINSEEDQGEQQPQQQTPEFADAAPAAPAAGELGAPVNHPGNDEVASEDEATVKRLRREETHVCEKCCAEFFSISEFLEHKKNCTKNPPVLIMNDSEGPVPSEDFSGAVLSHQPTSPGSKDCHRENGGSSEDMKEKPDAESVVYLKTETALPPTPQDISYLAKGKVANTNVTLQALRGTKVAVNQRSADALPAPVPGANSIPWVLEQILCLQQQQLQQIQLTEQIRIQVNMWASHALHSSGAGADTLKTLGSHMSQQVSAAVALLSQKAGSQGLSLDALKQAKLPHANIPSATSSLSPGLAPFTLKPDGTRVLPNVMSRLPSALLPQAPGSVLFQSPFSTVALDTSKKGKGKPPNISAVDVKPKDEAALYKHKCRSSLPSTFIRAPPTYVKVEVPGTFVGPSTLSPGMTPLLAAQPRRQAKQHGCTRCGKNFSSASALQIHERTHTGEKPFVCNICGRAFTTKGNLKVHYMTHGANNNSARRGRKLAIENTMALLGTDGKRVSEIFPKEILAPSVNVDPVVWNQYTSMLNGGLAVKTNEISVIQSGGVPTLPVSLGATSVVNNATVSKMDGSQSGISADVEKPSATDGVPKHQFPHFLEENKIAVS
For `GAGCGCCC`, the E-score was -0.402.
With `GAGGTAGA` the E-score was -0.143.
With `AAGGAAGC` the E-score was -0.144.
`TAATTTAA` gave an E-score of 0.299.
With `CGAGACCC` the E-score was -0.344.
With `GCGTGTCA` the E-score was 0.0304.
`ATACTCCC` has an E-score of 0.0158.
`CAAACAAG` gave an E-score of -0.178.
For `GCTAACTA`, the E-score was 0.0108.
`ACCTGGCT` gave an E-score of -0.217.
`CCATCGGC` gave an E-score of -0.263.
With `GCAACCTA` the E-score was 0.0302.
`GTACCTAA` has an E-score of 0.043.
The E-score of `AGGGTCAA` is reported as -0.0274.
For `CCCATTAC`, the E-score was 0.0273.
`GTATCCGA` gave an E-score of -0.124.
With `CACGCTCA` the E-score was -0.0845.
`CATGTTGA` has an E-score of 0.232.
`GATGTTCA` has an E-score of -0.0849.
`CTATTTGC` gave an E-score of 0.128.
The E-score of `AGACAGGG` is reported as -0.187.
`ATCAGTTG` has an E-score of 0.0471.
`GAGCGTAC` gave an E-score of -0.0457.

Study 4
Target: Histone acetyltransferase KAT6A, winged helix 2, GST fusion (KAT6A, Homo sapiens, UniProt Q92794, residues 85-181)
Technique: protein binding microarray
Form: double-stranded DNA, one strand shown
Medium: in vitro
Tested at: not given
Notes: 8-mer, flanks averaged, mean of 2 arrays, mostly near background
Reference: not given
Reading: higher = stronger binding
Target sequence (chain): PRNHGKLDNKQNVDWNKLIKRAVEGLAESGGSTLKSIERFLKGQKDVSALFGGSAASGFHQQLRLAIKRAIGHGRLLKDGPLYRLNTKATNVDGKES
`AGCCCGGC` has an E-score of 0.186.
For `CAGAACAA`, the E-score was 0.143.
`GCGTATTA` gave an E-score of 0.0414.
`CTGGGGAA` gave an E-score of -0.0588.
For `CTAGTTAC`, the E-score was -0.103.
`CAAGCTTG` gave an E-score of -0.123.
The E-score of `GTTCTTTA` is reported as 0.0196.
With `CCCTGGTA` the E-score was -0.133.
For `AAAATGTA`, the E-score was 0.0546.
For `AGAAGAAT`, the E-score was -0.0356.
With `GGATTGCC` the E-score was 0.185.
For `ACTGACTG`, the E-score was -0.128.
The E-score of `CCTATCGA` is reported as -0.126.
`AAAGATCC` gave an E-score of 0.0186.
`AAGTACAT` gave an E-score of -0.104.
`ACTTTAAA` has an E-score of 0.0192.
For `ATCCACCA`, the E-score was -0.106.
The E-score of `GAGAGTGC` is reported as -0.177.
`AACTACGC` gave an E-score of -0.0101.
`AAATGTGT` gave an E-score of -0.00961.
`GACTTACC` has an E-score of -0.207.
For `GCGACGAA`, the E-score was 0.221.
For `GTATCAGA`, the E-score was 0.00186.
The E-score of `ACGTGAGC` is reported as -0.185.
The E-score of `CATCTCTA` is reported as -0.0927.

Some of these lines once more (study 2):
For `GACGAACTGGGGTTTCGACACGTGCTA`, the log fluorescence was 0.914 z-score.
The log fluorescence of `GACGGAGTGGACTATCGGGACGTGCTA` is reported as -0.883 z-score.
`TCTTTTATGGTATTTTTTTGGTGCTAG` gave a log fluorescence of 1.16 z-score.
`ATTACTCCCCAACTCGCCTTGTGCTAG` has a log fluorescence of 1.01 z-score.
`TTAGGTATCGGGTTTCGGATAGTGCTA` has a log fluorescence of 4.68 z-score.
`TTAGGTTTCGCCACTGGGTTAGTGCTA` gave a log fluorescence of 1.18 z-score.
`CTAGGTTTCGGGTTTCGGTTAGTGCTA` has a log fluorescence of 12.5 z-score.
For `GACGGTTTCCTTAACCTGACGTGCTAG`, the log fluorescence was 0.982 z-score.
For `TTAGATATCGGGTATCGATCAGTGCTA`, the log fluorescence was 0.254 z-score.
For `TTAGAACTGGAGTATCGATTAGTGCTA`, the log fluorescence was 0.0961 z-score.
`TCATATACCACTCTTGCACTGTGCTAG` gave a log fluorescence of 0.586 z-score.
